Results pooled from the literature.
Protocols differ between the studies behind these lines. Numbers after ± are the reported error.
Nuclear receptor subfamily 2 group C member 2 ligand-binding domain: Nuclear receptor subfamily 2 group C member 2, ligand-binding domain (Homo sapiens, UniProt P49116)
Sequence of UniProt P49116 (whole entry, looked up): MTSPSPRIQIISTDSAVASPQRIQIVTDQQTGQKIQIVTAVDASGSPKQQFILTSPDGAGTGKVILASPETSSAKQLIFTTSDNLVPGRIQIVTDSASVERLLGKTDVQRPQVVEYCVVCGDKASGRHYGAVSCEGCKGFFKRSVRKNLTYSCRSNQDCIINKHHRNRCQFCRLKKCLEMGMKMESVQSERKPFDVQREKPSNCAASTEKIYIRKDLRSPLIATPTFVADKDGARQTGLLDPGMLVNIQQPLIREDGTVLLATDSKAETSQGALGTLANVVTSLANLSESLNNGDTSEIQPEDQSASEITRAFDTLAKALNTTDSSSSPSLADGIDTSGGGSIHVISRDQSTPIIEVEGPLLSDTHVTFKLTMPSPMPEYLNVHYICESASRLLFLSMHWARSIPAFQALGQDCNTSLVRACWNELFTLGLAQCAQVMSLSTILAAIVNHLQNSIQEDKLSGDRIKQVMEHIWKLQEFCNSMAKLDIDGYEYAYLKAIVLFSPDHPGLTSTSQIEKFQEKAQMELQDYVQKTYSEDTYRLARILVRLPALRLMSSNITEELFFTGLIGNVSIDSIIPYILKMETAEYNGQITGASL
AHSG asialo: Alpha-2-HS-glycoprotein, asialo (AHSG, Bos taurus, UniProt P12763)
Sequence of UniProt Q16774 (whole entry, unmodified, looked up): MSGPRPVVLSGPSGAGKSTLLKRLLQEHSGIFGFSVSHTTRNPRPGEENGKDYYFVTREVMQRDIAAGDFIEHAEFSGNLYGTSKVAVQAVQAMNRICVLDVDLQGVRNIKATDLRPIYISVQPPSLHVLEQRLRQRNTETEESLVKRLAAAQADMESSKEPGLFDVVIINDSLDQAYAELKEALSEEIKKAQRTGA
Sequence of UniProt P12763 (whole entry, looked up): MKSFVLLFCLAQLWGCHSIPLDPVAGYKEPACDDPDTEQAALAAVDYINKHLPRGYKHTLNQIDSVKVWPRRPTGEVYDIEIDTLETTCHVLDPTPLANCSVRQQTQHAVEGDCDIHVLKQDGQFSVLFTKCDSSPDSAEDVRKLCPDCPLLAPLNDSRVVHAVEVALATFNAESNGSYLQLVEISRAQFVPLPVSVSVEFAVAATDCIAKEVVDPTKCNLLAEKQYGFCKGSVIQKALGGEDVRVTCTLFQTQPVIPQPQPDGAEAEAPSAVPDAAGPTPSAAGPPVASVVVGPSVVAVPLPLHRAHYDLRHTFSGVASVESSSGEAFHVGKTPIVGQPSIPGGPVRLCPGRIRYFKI
Sequence of UniProt P19659 (1-357, looked up): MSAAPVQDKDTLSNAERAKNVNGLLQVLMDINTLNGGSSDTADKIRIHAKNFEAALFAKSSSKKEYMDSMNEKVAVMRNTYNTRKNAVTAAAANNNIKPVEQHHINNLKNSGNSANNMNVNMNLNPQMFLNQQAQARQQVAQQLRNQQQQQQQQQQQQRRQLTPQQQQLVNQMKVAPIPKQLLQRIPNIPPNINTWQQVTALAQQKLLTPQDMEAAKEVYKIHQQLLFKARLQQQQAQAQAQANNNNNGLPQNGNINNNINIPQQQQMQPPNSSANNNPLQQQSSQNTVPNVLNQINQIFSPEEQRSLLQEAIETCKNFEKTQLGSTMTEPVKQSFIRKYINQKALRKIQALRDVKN
Sequence of UniProt Q9X6J6 (whole entry, looked up): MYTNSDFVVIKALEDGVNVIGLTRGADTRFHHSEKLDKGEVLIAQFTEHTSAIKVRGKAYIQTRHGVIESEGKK
Sequence of UniProt P02754 (whole entry, looked up): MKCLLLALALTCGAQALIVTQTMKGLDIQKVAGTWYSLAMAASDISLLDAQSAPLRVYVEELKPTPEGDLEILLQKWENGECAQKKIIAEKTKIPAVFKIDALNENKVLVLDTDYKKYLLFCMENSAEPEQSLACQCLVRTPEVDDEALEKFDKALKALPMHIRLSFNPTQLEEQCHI
Sequence of UniProt Q13131 (whole entry, looked up): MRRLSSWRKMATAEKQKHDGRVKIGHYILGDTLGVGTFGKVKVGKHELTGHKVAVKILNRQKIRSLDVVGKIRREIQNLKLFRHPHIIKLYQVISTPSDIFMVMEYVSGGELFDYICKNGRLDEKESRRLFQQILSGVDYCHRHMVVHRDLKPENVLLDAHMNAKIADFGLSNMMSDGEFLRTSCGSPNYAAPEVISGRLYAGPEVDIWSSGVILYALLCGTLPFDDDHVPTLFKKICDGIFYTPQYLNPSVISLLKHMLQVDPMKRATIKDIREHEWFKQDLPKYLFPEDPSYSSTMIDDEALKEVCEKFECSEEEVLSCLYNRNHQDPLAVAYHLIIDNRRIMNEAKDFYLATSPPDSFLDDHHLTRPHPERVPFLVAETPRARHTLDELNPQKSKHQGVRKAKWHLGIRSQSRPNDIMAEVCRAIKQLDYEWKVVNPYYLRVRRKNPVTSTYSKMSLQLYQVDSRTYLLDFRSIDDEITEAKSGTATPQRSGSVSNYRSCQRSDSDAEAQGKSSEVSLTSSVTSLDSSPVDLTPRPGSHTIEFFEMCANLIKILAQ
Sequence of UniProt Q9Y3Z3 (whole entry, looked up): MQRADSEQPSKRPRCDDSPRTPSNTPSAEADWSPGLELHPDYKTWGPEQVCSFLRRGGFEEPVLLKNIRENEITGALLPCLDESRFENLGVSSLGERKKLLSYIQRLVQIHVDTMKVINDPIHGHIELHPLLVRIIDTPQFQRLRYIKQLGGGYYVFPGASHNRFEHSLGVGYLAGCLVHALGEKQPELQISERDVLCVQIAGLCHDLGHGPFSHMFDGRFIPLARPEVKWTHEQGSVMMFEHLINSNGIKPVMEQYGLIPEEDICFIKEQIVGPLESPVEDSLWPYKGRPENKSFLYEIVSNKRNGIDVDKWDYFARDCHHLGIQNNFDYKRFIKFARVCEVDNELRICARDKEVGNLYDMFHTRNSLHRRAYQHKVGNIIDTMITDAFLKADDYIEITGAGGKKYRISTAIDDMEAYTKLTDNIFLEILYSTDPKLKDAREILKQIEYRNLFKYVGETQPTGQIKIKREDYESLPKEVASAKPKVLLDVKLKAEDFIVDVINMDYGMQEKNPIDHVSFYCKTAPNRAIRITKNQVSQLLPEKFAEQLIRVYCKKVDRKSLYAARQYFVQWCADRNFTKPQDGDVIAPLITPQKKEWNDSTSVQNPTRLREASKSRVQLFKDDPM
Sequence of UniProt Q9UQM7 (whole entry, unmodified, looked up): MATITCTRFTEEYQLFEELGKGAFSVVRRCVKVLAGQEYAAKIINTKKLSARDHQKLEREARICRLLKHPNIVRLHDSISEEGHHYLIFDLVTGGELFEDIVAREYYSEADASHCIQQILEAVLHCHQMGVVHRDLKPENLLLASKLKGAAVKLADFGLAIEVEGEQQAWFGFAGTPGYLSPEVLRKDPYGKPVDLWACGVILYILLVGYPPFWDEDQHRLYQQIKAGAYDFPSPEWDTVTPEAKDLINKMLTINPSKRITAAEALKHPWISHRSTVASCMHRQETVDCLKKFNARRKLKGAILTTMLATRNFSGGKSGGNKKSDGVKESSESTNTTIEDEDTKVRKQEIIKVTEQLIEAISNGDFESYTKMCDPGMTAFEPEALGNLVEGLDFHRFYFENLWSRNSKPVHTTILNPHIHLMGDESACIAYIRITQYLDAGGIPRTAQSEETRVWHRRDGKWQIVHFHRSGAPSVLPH
Sequence of UniProt Q94521 (whole entry, looked up): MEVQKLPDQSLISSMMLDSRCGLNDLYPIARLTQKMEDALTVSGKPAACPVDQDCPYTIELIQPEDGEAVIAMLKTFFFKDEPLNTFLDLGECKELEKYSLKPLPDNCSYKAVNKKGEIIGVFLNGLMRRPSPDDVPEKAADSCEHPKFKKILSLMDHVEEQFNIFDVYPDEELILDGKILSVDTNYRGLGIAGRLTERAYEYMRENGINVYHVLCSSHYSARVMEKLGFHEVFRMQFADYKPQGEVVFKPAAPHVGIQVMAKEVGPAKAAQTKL
Sequence of UniProt Q8NEZ5 (whole entry, looked up): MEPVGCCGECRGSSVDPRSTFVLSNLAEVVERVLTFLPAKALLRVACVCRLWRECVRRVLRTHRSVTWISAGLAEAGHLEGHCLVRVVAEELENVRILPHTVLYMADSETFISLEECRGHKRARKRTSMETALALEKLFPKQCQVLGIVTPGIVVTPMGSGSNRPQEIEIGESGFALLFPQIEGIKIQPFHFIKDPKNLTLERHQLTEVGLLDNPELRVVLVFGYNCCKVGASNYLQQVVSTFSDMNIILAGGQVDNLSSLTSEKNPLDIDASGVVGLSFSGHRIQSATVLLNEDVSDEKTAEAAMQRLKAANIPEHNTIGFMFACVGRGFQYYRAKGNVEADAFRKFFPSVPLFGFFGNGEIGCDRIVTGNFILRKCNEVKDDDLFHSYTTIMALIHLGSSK
Sequence of UniProt P30988 (whole entry, looked up): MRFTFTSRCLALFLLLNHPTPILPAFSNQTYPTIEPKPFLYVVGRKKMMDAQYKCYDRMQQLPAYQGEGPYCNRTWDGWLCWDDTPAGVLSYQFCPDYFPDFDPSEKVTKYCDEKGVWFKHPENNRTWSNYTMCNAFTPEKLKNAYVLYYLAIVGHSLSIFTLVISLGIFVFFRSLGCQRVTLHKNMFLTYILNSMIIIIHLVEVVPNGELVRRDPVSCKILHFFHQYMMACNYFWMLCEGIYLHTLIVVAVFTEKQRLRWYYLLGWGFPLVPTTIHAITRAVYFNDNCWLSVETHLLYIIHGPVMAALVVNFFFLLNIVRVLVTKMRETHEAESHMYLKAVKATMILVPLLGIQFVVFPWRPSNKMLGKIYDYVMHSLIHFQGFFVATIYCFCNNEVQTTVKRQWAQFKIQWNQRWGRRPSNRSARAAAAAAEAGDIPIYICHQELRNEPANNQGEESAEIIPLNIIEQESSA
Sequence of UniProt Q60932 (whole entry, unmodified, looked up): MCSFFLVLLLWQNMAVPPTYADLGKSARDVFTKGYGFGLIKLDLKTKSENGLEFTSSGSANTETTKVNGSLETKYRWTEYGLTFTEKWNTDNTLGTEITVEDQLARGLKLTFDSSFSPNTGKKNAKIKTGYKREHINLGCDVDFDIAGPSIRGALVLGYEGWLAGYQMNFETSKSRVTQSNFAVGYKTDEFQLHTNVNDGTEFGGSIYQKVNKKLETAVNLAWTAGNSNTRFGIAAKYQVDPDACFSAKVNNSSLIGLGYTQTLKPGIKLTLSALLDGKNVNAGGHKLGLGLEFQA

| Structure (SMILES) | target | assay | system | setting | Kd |
| --- | --- | --- | --- | --- | --- |
| CCOC(=O)c1ccc(C#Cc2ccc3c(c2)C(C)(C)CCS3)nc1 | Nuclear receptor subfamily 2 group C member 2 ligand-binding domain | SPR imaging | – | – | 0.166 nM |
| CC(C)C[C@H](NC(=O)[C@H](CCC(=O)O)NC(=O)[C@H](CCC(N)=O)NC(=O)[C@H](CO)NC(=O)CCCCCNC(=S)Nc1ccc2c(c1)C(=O)OC21c2ccc(O)cc2Oc2cc(O)ccc21)C(=O)N[C@@H](Cc1c[nH]cn1)C(=O)N[C@@H](CCCCN)C(=O)N[C@@H](CC(C)C)C(=O)N[C@@H](CCC(N)=O)C(=O)N[C@H](C(=O)N[C@@H](Cc1ccc(O)cc1)C(=O)N1CCC[C@H]1C(=O)N[C@@H](CCCNC(=N)N)C(=O)N[C@H](C(=O)N[C@@H](CC(N)=O)C(=O)N[C@H](C(=O)NCC(=O)N[C@@H](CO)C(=O)NCC(=O)N[C@H](C(=O)N1CCC[C@H]1C(N)=O)[C@@H](C)O)[C@@H](C)O)[C@@H](C)O)[C@@H](C)O | Calcitonin receptor, extracellular domain (CALCR, Homo sapiens, UniProt P30988) | peptide binding, fluorescence polarization | – | pH 7.4, receptor ECD alone | 676 nM |
| [N-]=[N+]=NCC1OC(OC2C(N)CC(N)C(OC3OC(CN)C(O)C(O)C3O)C2O)C(O)C(N)C1O (stereo not drawn) | RNA, 5′CC/3′CC internal loops | RNA binding, fluorescence titration | – | 1 h, room temperature, 12 copies of 2×2 loop | > 5000 nM |
| CCCN1CCN(c2ccc(-c3cncc(Cl)c3N3CCC4(CCNC4=O)CC3)cc2)CC1 | MED1 (human) | SILAC competition displacement | LS174T-L5 cell lysate | – | 3 nM |
| COC(=O)C[C@@H]1N=C(c2ccc(Cl)cc2)c2c(sc(C(=O)NCCOCCNC(=O)C[C@@H]3N=C(c4ccc(Cl)cc4)c4c(sc(C)c4C)-n4c(C)nnc43)c2C)-n2c(C)nnc21 | Bromodomain testis-specific protein, BD1 and BD2 (BRDT, Homo sapiens, UniProt Q58F21) | – | – | – | 0.42 nM |
| CN(C)CCC(c1ccc(Br)cc1)c1ccccn1 (stereo not drawn) | Nuclear receptor subfamily 2 group C member 2 ligand-binding domain | SPR imaging | – | – | 0.103 nM |
| Cc1cc2nc3c(=O)[nH]c(=O)nc-3n(C[C@H](O)[C@H](O)[C@H](O)COP(=O)(O)OP(=O)(O)OC[C@H]3O[C@@H](n4cnc5c(N)ncnc54)[C@H](O)[C@@H]3O)c2cc1C | Latent-transforming growth factor beta-binding protein 2 (LTBP2, Homo sapiens, UniProt Q14767) | binding, MS pulldown competition | SW-620 cell lysate | – | 10700 nM |
| Nc1nc(=O)[nH]cc1F | Nuclear receptor subfamily 2 group C member 2 ligand-binding domain | SPR imaging | – | – | 9.86 nM |
| O=C(O)Cc1cn2nc(-c3ccc(Cl)cc3)ccc2n1 | Calcium/calmodulin-dependent protein kinase type II subunit alpha, hub domain (CAMK2A, Homo sapiens, UniProt Q9UQM7, E355Q/F467M/I414M/I464H/T354N/T412N) | surface plasmon resonance | – | pH 6, MES buffer | 1400 nM |
| CC1CCCCN1C(=O)CSc1nc(-c2ccc(C(C)(C)C)cc2)nc2cc(=O)[nH]n12 (stereo not drawn) | F-box only protein 22, with SKP1 (Homo sapiens, UniProt Q8NEZ5) | binding, SPR | – | 20 °C | > 6500 nM |
| C#Cc1c(F)ccc2cc(O)cc(-c3ncc4c(N5CC6CCC(C5)N6)nc(OC[C@@]56CCCN5C[C@H](F)C6)nc4c3F)c12 | MRAS, GDP-bound (Homo sapiens, UniProt O14807) | binding, surface plasmon resonance | – | – | > 30000 nM |
| NC(=O)C1=CN([C@@H]2O[C@H](COP(=O)(O)OP(=O)(O)OC[C@H]3O[C@@H](n4cnc5c(N)ncnc54)[C@H](O)[C@@H]3O)[C@@H](O)[C@H]2O)C=CC1 | Non-selective voltage-gated ion channel VDAC1 (Vdac1, Mus musculus, UniProt Q60932, N251K) | binding, fluorescence polarization | – | – | 6830 ± 60 nM |
| C[C@H](N)C(=O)N[C@@H](CCCNC(=N)N)C(=O)N[C@H](C(=O)N[C@@H](CCCCN)C(=O)N[C@@H](CCC(N)=O)C(=O)N[C@H](C(=O)N[C@@H](C)C(=O)N[C@@H](CCCNC(=N)N)C(=O)N[C@@H](CCCCN)C(=O)N[C@@H](CO)C(=O)O)[C@@H](C)O)[C@@H](C)O | Transcriptional regulator ATRX (ATRX, Homo sapiens, UniProt P46100, F284Y/K251R) | binding | – | – | 3600 nM |
| N[C@@H](CCC(=O)N[C@@H](CS)C(=O)NCC(=O)O)C(=O)O | Cu(I) | binding, bicinchoninic acid competition | – | 1000 µM, added: bicinchoninic acid 40 µM | 0.0315 nM |
| CCCCCCCC(=O)OC[C@H](COP(=O)(O)O[C@@H]1[C@H](O)[C@H](OP(=O)(O)O)[C@@H](O)[C@H](O)[C@H]1O)OC(=O)CCCCCCC | PP2C family protein phosphatase (Vibrio splendidus, UniProt A0ABV4LX41) | binding, microscale thermophoresis | – | added: diC8 50 µM | 280 ± 71 nM |
| N#Cc1c(O)c2c(-c3ccc(-c4ccccc4O)cc3)csc2[nH]c1=O | 5'-AMP-activated protein kinase catalytic subunit alpha-1, with beta1, gamma1 (PRKAA1, Homo sapiens, UniProt Q13131) | binding, SPR | – | His-GST-tagged target immobilized | 2460 nM |
| CCCCCCCC(=O)OC[C@H](COP(=O)(O)O[C@@H]1[C@H](O)[C@H](O)[C@@H](OP(=O)(O)O)[C@H](OP(=O)(O)O)[C@H]1O)OC(=O)CCCCCCC | Kv7.2/Kv7.3(EEE) mutant channel | channel opening, activator, model fit of open probability | – | model 5, K2, efficacy fixed to WT | 55600 nM |
| Nc1ncnc2c1ncn2[C@@H]1O[C@H](COP(=O)(O)OP(=O)(O)OP(=O)(O)O)[C@@H](O)[C@H]1O | CKMT1A (Homo sapiens, UniProt P12532, E265Q) | microscale thermophoresis | – | pH 7.0, E227Q mutant, no substrate | 22000 ± 16000 nM |

| Structure (SMILES) | target | assay | system | setting | Kd |
| --- | --- | --- | --- | --- | --- |
| CC(=O)N[C@@H](COP(=O)(O)O)C(=O)N1CCC[C@H]1C(=O)N[C@H](C(=O)N[C@@H](Cc1ccccc1)C(N)=O)[C@@H](C)O | Breast cancer type 1 susceptibility protein, tandem BRCT domains (BRCA1, Homo sapiens, UniProt P38398) | NMR titration | – | pH 7.0, 30 °C | ~1000 nM |
| C[C@@H]1C[C@H]2[C@@H]3CCC4=CC(=O)C=C[C@]4(C)[C@@]3(Cl)[C@@H](O)C[C@]2(C)[C@@]1(OC(=O)c1ccco1)C(=O)CCl | Nuclear receptor subfamily 2 group C member 2 ligand-binding domain | SPR imaging | – | – | 0.0761 nM |
| Nc1nc2c(ncn2[C@@H]2O[C@H](COP(=O)(O)O)[C@@H](O)[C@H]2O)c(=O)[nH]1 | GUK1 (Homo sapiens, UniProt Q16774, S13A) | binding, ITC | – | 25 °C | 37000 ± 2000 nM |
| Cn1c([N+](=O)[O-])cnc1COC(N)=O | Nuclear receptor subfamily 2 group C member 2 ligand-binding domain | SPR imaging | – | – | 47 nM |
| NC(=O)C1=CN([C@@H]2O[C@H](COP(=O)(O)OP(=O)(O)OC[C@H]3O[C@@H](n4cnc5c(N)ncnc54)[C@H](O)[C@@H]3O)[C@@H](O)[C@H]2O)C=CC1 | Polyketide synthase, terminal amidation domain (Moorena producens, UniProt F4Y2B0) | binding, tryptophan fluorescence quenching | – | – | 85000 ± 7000 nM |
| CC1=C[C@H](O)CC(C)(C)[C@H]1/C=C/C(C)=C/C=C/C(C)=C/C=C/C=C(C)/C=C/C=C(C)/C=C/C1=C(C)C[C@@H](O)CC1(C)C | Beta-lactoglobulin (LGB, Bos taurus, UniProt P02754) | binding, fluorescence quenching | PBS | 30 min, 298 K | 0.0251 nM |
| CC(C)C[C@@H]1NC(=O)[C@H](C)NC(=O)CNC(=O)[C@H](CC(N)=O)NC(=O)[C@@H]2CCCN2C(=O)[C@H](Cc2ccc(O)cc2)NC(=O)[C@H](CCCNC(=N)N)NC(=O)[C@H](Cc2ccccc2)NC(=O)[C@@H](NC(=O)[C@H](CCCCN)NC(=O)[C@@H]2CCCN2C(=O)[C@H](CO)NC(=O)[C@H](C)NC(=O)[C@@H](N)Cc2ccc(O)cc2)CSSC[C@@H](C(=O)N[C@H](C(N)=O)[C@@H](C)O)NC(=O)[C@H](C)NC1=O | AHSG asialo | binding, isothermal titration calorimetry | – | pH 7.0, 25 °C, added: asialofetuin | 101000 nM |
| CC(C)C[C@H](NC(=O)[C@@H]1CCCN1C(=O)[C@H](CO)NC(=O)[C@H](CC(N)=O)NC(=O)[C@@H](N)CCC(=O)O)C(=O)N[C@@H](Cc1c[nH]c2ccccc12)C(=O)N[C@@H](Cc1c[nH]c2ccccc12)C(=O)N1CCC[C@H]1C(=O)N[C@@H](CCC(N)=O)C(=O)N1CCC[C@H]1C(=O)N[C@@H](CC(C)C)C(=O)N[C@@H](C)C(=O)O | Mediator of RNA polymerase II transcription subunit 15, residues 1-357 (GAL11, Saccharomyces cerevisiae, UniProt P19659) | binding, fluorescence polarization | – | added: fluorescein-labeled peptide | 83000 ± 5000 nM |
| Nc1nc2c(ncn2[C@@H]2O[C@H](COP(=O)(O)OP(=O)(O)OP(=O)(O)O)[C@@H](O)[C@H]2O)c(=O)[nH]1 | Deoxynucleoside triphosphate triphosphohydrolase SAMHD1, allosteric site A1 (SAMHD1, Homo sapiens, UniProt Q9Y3Z3) | fluorescence anisotropy displacement | – | allosteric site A1 | 52000 ± 14000 nM |
| CN(C)CCCOc1nn(Cc2ccccc2)c2ccccc12 | Nuclear receptor subfamily 2 group C member 2 ligand-binding domain | SPR imaging | – | – | 1.16 nM |
| N[C@@H](Cc1c[nH]c2ccccc12)C(=O)O | Transcription attenuation protein MtrB (mtrB, Geobacillus stearothermophilus, UniProt Q9X6J6) | native mass spectrometry titration | – | – | 870 nM |
| C[S+](CC[C@H](N)C(=O)O)C[C@H]1O[C@@H](n2cnc3c(N)ncnc32)[C@H](O)[C@@H]1O (stereo partly drawn) | O-methyltransferase (Sorghum bicolor, UniProt A0A1B6PFV1) | ITC | – | added: saturating PTR | 139000 ± 45800 nM |
| COc1ccccc1N1CCN(CC(O)COc2cccc3ccccc23)CC1 (stereo not drawn) | Nuclear receptor subfamily 2 group C member 2 ligand-binding domain | SPR imaging | – | – | 0.015 nM |
| Nc1nc2c(ncn2[C@@H]2O[C@@H]3COP(=O)(O)O[C@H]4[C@@H](OC(=O)NCCCCCCNC(=O)c5ccc6c(c5)C(=O)OC65c6ccc(O)cc6Oc6cc(O)ccc65)[C@H](n5cnc6c(=O)[nH]c(N)nc65)O[C@@H]4COP(=O)(O)O[C@H]3[C@H]2O)c(=O)[nH]1 | Uncharacterized protein (Caulobacter vibrioides, UniProt Q9ABT2) | binding, fluorescence competition | – | added: 2'-Fluo-AHC-c-di-GMP | 2200 ± 500 nM |
| O=C(O)CCCC[C@@H]1SC[C@@H]2NC(=O)N[C@@H]21 | Nuclear receptor subfamily 2 group C member 2 ligand-binding domain | SPR imaging | – | – | 0.223 nM |
| NCCc1ccc(O)c(O)c1 | speck (Drosophila melanogaster, UniProt Q94521) | binding, isothermal titration calorimetry | – | – | 12600 nM |
| CC(C)C[C@@H]1NC(=O)[C@H](C(C)C)NC(=O)CNC(=O)[C@H](CC(N)=O)NC(=O)[C@@H]2CCCN2C(=O)[C@H](Cc2ccc(O)cc2)NC(=O)[C@H](CCCNC(=N)N)NC(=O)[C@H](Cc2ccccc2)NC(=O)[C@@H](NC(=O)[C@H](CCCCN)NC(=O)[C@@H]2CCCN2C(=O)[C@H](C)NC(=O)[C@H](C)NC(=O)[C@@H](N)Cc2ccc(O)cc2)CSSC[C@@H](C(=O)N[C@H](C(N)=O)[C@@H](C)O)NC(=O)[C@H](C)NC1=O | AHSG asialo | binding, isothermal titration calorimetry | – | pH 7.0, 25 °C, added: asialofetuin | 61300 nM |
| Nc1nc2c(ncn2[C@@H]2O[C@H](COP(=O)(O)OP(=O)(O)O)[C@@H](O)[C@H]2O)c(=O)[nH]1 | GUK1 (Homo sapiens, UniProt Q16774, R137A) | binding, ITC | – | 25 °C, added: GMP | 105000 ± 70000 nM |

A few entries again:
| Structure (SMILES) | target | assay | system | setting | Kd |
| --- | --- | --- | --- | --- | --- |
| O=C(O)CCCC[C@@H]1SC[C@@H]2NC(=O)N[C@@H]21 | Nuclear receptor subfamily 2 group C member 2 ligand-binding domain | SPR imaging | – | – | 0.223 nM |
| Nc1nc2c(ncn2[C@@H]2O[C@H](COP(=O)(O)OP(=O)(O)O)[C@@H](O)[C@H]2O)c(=O)[nH]1 | GUK1 (Homo sapiens, UniProt Q16774, R137A) | binding, ITC | – | 25 °C, added: GMP | 105000 ± 70000 nM |
| CN(C)CCC(c1ccc(Br)cc1)c1ccccn1 (stereo not drawn) | Nuclear receptor subfamily 2 group C member 2 ligand-binding domain | SPR imaging | – | – | 0.103 nM |
| N[C@@H](CCC(=O)N[C@@H](CS)C(=O)NCC(=O)O)C(=O)O | Cu(I) | binding, bicinchoninic acid competition | – | 1000 µM, added: bicinchoninic acid 40 µM | 0.0315 nM |
| [N-]=[N+]=NCC1OC(OC2C(N)CC(N)C(OC3OC(CN)C(O)C(O)C3O)C2O)C(O)C(N)C1O (stereo not drawn) | RNA, 5′CC/3′CC internal loops | RNA binding, fluorescence titration | – | 1 h, room temperature, 12 copies of 2×2 loop | > 5000 nM |
